Results from different studies.
Compare with care: the assays were run in different laboratories.
T1: PDHA1/PDHB 30-390 E234A on β (Homo sapiens); chain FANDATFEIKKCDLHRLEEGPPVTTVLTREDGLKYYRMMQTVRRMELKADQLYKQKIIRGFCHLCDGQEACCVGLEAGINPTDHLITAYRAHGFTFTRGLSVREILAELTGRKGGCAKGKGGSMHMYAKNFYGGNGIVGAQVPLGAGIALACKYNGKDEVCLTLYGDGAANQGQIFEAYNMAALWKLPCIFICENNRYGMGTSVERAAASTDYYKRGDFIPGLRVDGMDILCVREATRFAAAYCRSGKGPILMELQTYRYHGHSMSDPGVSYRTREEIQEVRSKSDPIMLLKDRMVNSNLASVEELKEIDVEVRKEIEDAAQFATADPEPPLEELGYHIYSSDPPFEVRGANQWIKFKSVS; chain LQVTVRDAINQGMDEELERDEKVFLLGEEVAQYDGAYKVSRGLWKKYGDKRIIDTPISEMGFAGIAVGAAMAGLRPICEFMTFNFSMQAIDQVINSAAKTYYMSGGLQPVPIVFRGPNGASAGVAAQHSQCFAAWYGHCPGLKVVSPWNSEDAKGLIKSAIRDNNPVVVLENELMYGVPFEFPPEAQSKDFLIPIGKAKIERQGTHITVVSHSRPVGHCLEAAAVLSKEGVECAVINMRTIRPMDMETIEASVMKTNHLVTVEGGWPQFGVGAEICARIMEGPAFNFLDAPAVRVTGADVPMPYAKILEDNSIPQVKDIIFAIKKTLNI
B1: SNW1 59-129 (Homo sapiens, UniProt Q13573); sequence looked up; chain GDGGAFPEIHVAQYPLDMGRKKKMSNALAIQVDSEGKIKYDAIARQGQSKDKVIYSKYTDLVPKEVMNADD
B2: ARRB1 A12C/V387C (Homo sapiens, UniProt P49407); AlexaFluor 488, ATTO647N labels; chain MGDKGTRVFKKCSPNGKLTVYLGKRDFVDHIDLVDPVDGVVLVDPEYLKERRVYVTLTVAFRYGREDLDVLGLTFRKDLFVANVQSFPPAPEDKKPLTRLQERLIKKLGEHAYPFTFEIPPNLPSSVTLQPGPEDTGKALGVDYEVKAFVAENLEEKIHKRNSVRLVIRKVQYAPERPGPQPTAETTRQFLMSDKPLHLEASLDKEIYYHGEPISVNVHVTNNTNKTVKKIKISVRQYADIVLFNTAQYKVPVAMEEADDTVAPSSTFSKVYTLTPFLANNREKRGLALDGKLKHEDTNLASSTLLREGANREILGIIVSYKVKVKLVVSRGGLLGDLASSDVAVELPFTLMHPKPKEEPPHREVPENETPVDTNLIELDTNDDDICFEDFARQRLKGMKDDKEEEEDGTGSPQLNNR
B3: DLAT 214-416 (Homo sapiens, UniProt P10515); sequence looked up; chain SYPPHMQVLLPALSPTMTMGTVQRWEKKVGEKLSEGDLLAEIETDKATIGFEVQEEGYLAKILVPEGTRDVPLGTPLCIIVEKEADISAFADYRPTEVTDLKPQVPPPTPPPVAAVPPTPQPLAPTPSAPCPATPAGPKGRVFVSPLAKKLAVEKGIDLTQVKGTGPDGRITKKDIDSFVPSKVAPAPAAVVPPTGPGMAPVP
B4: DNAJB11 (Homo sapiens, UniProt Q9UBS4); chain GRDFYKILGVPRSASIKDIKKAYRKLALQLHPDRNPDDPQAQEKFQDLGAAYEVLSDSEKRKQYDTYGEEGLKDGHQSSHGDIFSHFFGDFGFMFGGTPRQQDRNIPRGSDIIVDLEVTLEEVYAGNFVEVVRNKPVARQAPGKRKCNCRQEMRTTQLGPGRFQMTQEVVCDECPNVKLVNEERTLEVEIEPGVRDGMEYPFIGEGEPHVDGEPGDLRFRIKVVKHPIFERRGDDLYTNVTISLVESLVGFEMDITHLDGHKVHISRDKITRPGAKLWKKGEGLPNFDNNNIKGSLIITFDVDFPKEQLTEEAREGIKQLLKQGSVQKVYNGLQGY
B5: GET1 21-104 (Saccharomyces cerevisiae, UniProt P53192); Alexa594 label; sequence looked up; chain TNKYHEKWISKFAPGNELSKKYLAKVKERHELKEFNNSISAQDNYAKWTKNNRKLDSLDKEINNLKDEIQSENKAFQAHLHKLR
B6: sasA (Synechococcus elongatus, UniProt Q06904); sequence looked up; chain MGESLSPQALAQPLLLQLFVDTRPLSQHIVQRVKNILAAVEATVPISLQVINVADQPQLVEYYRLVVTPALVKIGPGSRQVLSGIDLTDQLANQLPQWLVQQEAFFADREPPEVNIPFTELGQPETPALQQADAFFQLQQQYADLSERTKFLEQVIALVAHDLRNPLTAALLAVDTIQIRSQSFSVATAKEMQGLCSLFDQARSQLREIERMIAEILEATRHSGESLRINPREVVFEPLLQQVLEQLHERWRSKQQQLITDVPGDLPTLYADPDRLRQVLVNLLDNAIKYTPPGGTITIAALHRTSQKVQISISDTGSGIPRDQLSVIFKNLVRLSRDSSQEGYGIGLSVCQRIVQAHFGRIWVASELGQGSTFHFTMPVYRYTMPC
B7: PEX15 1-327 (Saccharomyces cerevisiae, UniProt Q08215); sequence looked up; chain MAASEIMNNLPMHSLDSSLRDLLNDDLFIESDESTKSVNDQRSEVFQECVNLFIKRDIKDCLEKMSEVGFIDITVFKSNPMILDLFVSACDIMPSFTKLGLTLQSEILNIFTLDTPQCIETRKIILGDLSKLLVINKFFRCCIKVIQFNLTDHTEQEEKTLELESIMSDFIFVYITKMRTTIDVVGLQELIEIFIFQVKVKLHHKKPSPNMYWALCKTLPKLSPTLKGLYLSKDVSIEDAILNSIDNKIQKDKAKSKGKQRGVKQKIHHFHEPMLHNSSEEQVKVEDAFNQRTSTDSRLQSTGTAPRKKNNDITVLAGSFWAVLKHH
B8: rasC GTP-bound Q62L (Dictyostelium discoideum, UniProt P32253); chain MSKLLKLVIVGDGGVGKSALTIQLTQNQFIAEYDPTIENSYRKQVNIDEEVYMLDILDTAGLEEYSAMRDQYIRSGRGFLIVYSIISRASFEAVTTFREQILRVKDLSTYPIVIIGNKADLPDKDRKVPPMEGKELAKSFGAPFLETSAKSRVNVEEAFFTLVREIKRWNQNPQNEEMLPPKKRGCIIL
B9: slc12a2 1-202 (Danio rerio, UniProt A0A0G2KTI4); sequence looked up; chain MSASPPISAGDYLSAPEPDALKPAGPTPSQSRFQVDLVTESAGDGETTVGFDSSPPEYVAEPPPDGLRDSVSGGEEAKGRFRVVNFAASSPDAAPAETAQNGDTVMSEGSLHSSTGGQQHHHYDTHTNTYYLRTFGHNTIDAVPKIDFYRQTAAPLGEKLIRPTLSELHDELDKEPFEDGFANGEELTPAEESAAKDVSESK
B10: MPP6 (Saccharomyces cerevisiae, UniProt P53725); sequence looked up; chain MSANNGVTGKLSSRVMNMKFMKFGKTDDEESSNSNTPSNINSDVEPIEQKGKLFGLDDSAWDLNSYKDDLKKISGKEKKKVKRVVYKKRPNLIISNVGYSELRKPEGVISGRKTFGDNSDDSGSRKRKFDEGEQNEDEKRDAKDKEFTGSQDDGEDEYDLDKLFKDSIKKKKTNHNGKNKNRNSKK
B11: mel-26 (Caenorhabditis elegans, UniProt Q94420); sequence looked up; chain MEPRIDGGVFIGGIGNSGNEMCSNGVPALGVSSQTEIKVEKVQHTWTVKNFSHCYQEYLENFVYLQRGDEQLTWSIKIYPKGNGENNKDFVFLCLNRVINNNVKAGKIGFKSQFKLRTAENKDIEMRIHPNPSHSDYVSYIKRDVLFPQIMPRDMIIVNVEIDVAVETITTTNEPIQFEPTNSEQQLIEDYQRLFSQELLCDFAINVNGKIIRAHKAVLAARSPVFNAMLTHQDTDEAKSSMMYINDMDYDVIYEMVYYIYCGRCNKDITDMATALLIAADKYRLEELKSHCEKYLVENINIENACSLLIIGDLYSAPKLRKRAVTYILARPKNVTGTPGWEDILKGHPNLITDIFSQIDRQSSTGATSSVSNLPGVPMDIPGITGNIVPPPSGL
Sequence of UniProt P53890 (whole entry, looked up): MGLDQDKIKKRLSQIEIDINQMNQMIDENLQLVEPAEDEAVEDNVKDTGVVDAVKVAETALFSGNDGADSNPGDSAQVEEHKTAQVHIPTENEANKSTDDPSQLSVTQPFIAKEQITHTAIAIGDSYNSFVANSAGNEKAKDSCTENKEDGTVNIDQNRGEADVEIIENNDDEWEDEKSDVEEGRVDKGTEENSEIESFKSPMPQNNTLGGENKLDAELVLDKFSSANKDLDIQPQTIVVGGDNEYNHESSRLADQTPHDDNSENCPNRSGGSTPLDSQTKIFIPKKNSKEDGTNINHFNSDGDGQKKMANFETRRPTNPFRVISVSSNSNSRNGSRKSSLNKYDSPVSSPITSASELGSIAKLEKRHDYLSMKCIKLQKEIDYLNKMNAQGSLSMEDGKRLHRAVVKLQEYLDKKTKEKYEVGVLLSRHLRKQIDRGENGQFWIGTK
Sequence of UniProt P55067 (whole entry, looked up): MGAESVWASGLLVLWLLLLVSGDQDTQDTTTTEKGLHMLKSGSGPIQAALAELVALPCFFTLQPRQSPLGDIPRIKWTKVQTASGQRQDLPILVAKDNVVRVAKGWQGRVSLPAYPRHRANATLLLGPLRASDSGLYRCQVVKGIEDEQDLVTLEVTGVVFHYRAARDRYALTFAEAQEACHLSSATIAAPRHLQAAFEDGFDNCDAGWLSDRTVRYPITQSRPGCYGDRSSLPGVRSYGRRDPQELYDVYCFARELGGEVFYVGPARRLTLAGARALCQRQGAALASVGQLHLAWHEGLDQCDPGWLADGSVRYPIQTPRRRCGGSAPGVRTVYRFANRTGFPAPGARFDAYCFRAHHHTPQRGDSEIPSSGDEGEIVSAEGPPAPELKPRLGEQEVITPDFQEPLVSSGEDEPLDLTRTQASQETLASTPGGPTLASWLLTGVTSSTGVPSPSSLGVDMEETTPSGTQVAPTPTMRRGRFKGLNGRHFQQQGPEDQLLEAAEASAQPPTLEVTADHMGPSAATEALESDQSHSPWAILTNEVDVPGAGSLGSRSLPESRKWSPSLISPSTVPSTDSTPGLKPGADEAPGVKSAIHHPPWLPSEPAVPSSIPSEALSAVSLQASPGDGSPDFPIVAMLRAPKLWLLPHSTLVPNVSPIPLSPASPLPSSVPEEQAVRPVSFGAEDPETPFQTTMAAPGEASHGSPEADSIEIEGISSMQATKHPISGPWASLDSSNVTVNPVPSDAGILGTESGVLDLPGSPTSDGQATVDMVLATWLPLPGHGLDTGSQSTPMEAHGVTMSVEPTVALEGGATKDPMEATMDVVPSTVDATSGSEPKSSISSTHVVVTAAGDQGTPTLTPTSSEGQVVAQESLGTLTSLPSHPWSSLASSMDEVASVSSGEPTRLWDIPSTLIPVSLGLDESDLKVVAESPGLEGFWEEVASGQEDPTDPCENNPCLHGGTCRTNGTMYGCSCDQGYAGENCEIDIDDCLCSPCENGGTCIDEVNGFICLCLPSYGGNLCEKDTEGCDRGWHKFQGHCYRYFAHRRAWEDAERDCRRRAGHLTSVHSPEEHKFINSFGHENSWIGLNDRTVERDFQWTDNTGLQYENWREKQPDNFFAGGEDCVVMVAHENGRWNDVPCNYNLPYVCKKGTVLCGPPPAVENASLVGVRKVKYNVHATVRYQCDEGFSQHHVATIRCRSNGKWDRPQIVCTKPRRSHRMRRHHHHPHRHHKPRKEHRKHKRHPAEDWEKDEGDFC
Sequence of UniProt O60656 (whole entry, looked up): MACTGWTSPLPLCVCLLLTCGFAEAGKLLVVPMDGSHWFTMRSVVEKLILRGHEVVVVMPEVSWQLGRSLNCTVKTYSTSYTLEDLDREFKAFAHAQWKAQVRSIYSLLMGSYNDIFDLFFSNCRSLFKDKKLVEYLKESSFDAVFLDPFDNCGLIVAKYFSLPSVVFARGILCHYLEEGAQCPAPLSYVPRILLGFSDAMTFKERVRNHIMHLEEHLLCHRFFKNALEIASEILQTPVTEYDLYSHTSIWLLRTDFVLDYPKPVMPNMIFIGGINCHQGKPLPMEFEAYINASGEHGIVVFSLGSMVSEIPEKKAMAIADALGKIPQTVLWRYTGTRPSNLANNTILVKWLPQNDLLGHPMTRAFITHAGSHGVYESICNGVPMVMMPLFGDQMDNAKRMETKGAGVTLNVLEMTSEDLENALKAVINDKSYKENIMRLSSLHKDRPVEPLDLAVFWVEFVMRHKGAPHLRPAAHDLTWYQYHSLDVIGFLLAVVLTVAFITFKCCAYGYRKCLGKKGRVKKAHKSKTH
Sequence of UniProt Q12154 (whole entry, unmodified, looked up): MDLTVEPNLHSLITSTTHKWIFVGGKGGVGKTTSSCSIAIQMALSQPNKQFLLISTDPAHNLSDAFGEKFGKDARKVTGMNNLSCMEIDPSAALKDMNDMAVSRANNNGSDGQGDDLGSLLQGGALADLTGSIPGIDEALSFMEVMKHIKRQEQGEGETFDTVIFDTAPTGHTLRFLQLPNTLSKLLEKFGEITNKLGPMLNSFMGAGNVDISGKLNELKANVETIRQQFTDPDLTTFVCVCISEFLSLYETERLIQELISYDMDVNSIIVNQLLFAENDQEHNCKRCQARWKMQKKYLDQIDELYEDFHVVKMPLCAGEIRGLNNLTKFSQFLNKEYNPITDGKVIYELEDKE
Sequence of UniProt P55017 (whole entry, unmodified, looked up): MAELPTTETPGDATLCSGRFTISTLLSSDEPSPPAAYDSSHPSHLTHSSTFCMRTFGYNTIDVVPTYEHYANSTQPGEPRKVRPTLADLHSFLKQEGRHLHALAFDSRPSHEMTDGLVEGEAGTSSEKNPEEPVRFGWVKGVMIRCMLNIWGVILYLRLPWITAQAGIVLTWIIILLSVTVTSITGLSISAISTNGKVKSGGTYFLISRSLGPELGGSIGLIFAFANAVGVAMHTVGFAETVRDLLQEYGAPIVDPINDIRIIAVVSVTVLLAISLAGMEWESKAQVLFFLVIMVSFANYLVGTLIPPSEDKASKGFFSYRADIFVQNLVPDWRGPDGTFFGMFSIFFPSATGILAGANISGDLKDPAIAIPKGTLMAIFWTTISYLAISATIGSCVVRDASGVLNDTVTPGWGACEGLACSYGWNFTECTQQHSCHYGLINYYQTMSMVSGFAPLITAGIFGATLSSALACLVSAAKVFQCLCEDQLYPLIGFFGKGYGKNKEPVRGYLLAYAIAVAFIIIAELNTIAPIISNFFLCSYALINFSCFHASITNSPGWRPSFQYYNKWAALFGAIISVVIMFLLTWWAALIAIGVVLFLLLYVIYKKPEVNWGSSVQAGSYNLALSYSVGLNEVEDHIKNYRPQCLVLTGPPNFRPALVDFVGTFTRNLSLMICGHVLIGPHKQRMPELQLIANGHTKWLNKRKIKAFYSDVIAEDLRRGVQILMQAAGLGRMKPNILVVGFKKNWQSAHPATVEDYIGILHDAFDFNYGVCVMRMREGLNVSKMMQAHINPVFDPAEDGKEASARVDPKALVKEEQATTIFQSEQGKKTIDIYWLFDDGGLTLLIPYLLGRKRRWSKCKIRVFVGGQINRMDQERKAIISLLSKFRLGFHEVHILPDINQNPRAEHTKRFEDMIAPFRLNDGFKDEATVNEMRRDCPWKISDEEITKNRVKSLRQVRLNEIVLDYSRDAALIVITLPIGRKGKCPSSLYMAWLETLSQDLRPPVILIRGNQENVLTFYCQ
Sequence of UniProt Q9Y3C6 (whole entry, looked up): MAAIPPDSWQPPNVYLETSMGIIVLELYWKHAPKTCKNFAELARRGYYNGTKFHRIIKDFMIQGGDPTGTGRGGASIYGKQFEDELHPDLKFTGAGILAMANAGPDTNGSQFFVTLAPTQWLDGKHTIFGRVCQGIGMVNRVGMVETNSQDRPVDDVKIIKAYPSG
Sequence of UniProt Q23862 (whole entry, unmodified, looked up): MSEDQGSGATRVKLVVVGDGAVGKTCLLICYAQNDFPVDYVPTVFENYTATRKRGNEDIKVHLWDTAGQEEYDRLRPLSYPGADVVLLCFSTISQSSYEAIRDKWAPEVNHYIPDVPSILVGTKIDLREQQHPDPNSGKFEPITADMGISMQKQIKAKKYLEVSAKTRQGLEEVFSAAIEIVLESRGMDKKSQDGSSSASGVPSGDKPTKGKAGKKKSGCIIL
Sequence of UniProt Q79PF4 (whole entry, unmodified, looked up): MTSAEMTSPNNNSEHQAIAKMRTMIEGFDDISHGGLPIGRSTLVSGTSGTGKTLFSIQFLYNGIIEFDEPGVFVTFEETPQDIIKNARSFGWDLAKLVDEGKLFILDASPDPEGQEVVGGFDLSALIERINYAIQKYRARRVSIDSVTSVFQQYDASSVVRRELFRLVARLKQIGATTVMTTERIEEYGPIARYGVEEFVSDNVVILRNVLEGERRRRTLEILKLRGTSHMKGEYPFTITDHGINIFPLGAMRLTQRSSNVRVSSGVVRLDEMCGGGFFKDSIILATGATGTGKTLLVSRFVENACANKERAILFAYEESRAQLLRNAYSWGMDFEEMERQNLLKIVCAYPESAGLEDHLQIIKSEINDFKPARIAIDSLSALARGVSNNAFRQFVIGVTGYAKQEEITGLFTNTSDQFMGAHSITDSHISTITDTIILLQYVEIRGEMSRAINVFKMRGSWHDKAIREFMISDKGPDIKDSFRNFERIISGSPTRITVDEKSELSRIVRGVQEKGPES
Sequence of UniProt Q16816 (whole entry, looked up): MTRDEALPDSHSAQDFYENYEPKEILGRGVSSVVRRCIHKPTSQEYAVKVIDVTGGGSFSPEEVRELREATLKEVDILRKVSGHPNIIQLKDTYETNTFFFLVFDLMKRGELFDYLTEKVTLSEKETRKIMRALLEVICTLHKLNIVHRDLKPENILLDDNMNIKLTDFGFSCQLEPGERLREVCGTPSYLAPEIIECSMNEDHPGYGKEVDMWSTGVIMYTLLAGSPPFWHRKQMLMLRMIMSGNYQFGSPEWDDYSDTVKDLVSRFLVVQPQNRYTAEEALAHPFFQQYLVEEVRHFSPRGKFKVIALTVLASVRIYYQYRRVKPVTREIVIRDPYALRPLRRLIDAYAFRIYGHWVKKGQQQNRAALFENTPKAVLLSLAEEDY

Under binding, `B1 (SNW1 59-129)` is recorded as “binds” (PPIL1 (Homo sapiens, UniProt Q9Y3C6); SPR).
For `B2 (ARRB1 A12C/V387C)`, binding read “binds” (NTSR1, GRK5-phosphorylated (Homo sapiens, UniProt P30989); fluorescence titration).
With `UGT1A9 (Homo sapiens, UniProt O60656)` the Vmax was 7.44e-05 µmol/min/mg (O=c1cc(-c2ccccc2O)oc2ccccc12; steady-state kinetics; pH 7.4, 37 °C).
`Ncan, 125I label, chondroitin sulfate chains (Rattus norvegicus, UniProt P55067)`: binding “binds” (L1cam mature (Rattus norvegicus, UniProt Q05695); radioligand binding).
For `RAKMPRALDFSGHTHPVATFQPSRPESVNDLFLCPQKELTRGVRPTPR (IFNLR1 residues 260-307 (Homo sapiens))`, binding read “binds” (JAK1 31-577 (Homo sapiens, UniProt P23458); crystal structure; peptide).
`B3 (DLAT 214-416)`: binding “binds” (T1, PDHA1/PDHB 30-390 E234A on β (Homo sapiens); SPR).
For `PHKG1 (Homo sapiens, UniProt Q16816)`, binding read “binds” (PHKA1, phosphorylated incl. pS1018 (Homo sapiens, UniProt P46020); cryo-EM).
`B4 (DNAJB11)` — result for binding: “binds” (HSP90B1 D149N (Homo sapiens, UniProt P14625); pull-down).
`SMARCD1 (Homo sapiens, UniProt Q96GM5-1)`: binding “binds” (SMARCA4 (Homo sapiens, UniProt P51532-1); cross-linking).
Under binding, `BNI5 (Saccharomyces cerevisiae, UniProt P53890)` is recorded as “binds” (Cdc11/Cdc12/Cdc3/Cdc10 hetero-octamer (Saccharomyces cerevisiae); negative-stain EM; KCl 45 mM, with: septins 50 nM).
Under binding, `B5 (GET1 21-104)` is recorded as “binds” (GET3 D57N, Alexa488 label (Saccharomyces cerevisiae, UniProt Q12154); FRET; with: nucleotides).
`HSPA5 (Homo sapiens, UniProt P11021)` — result for binding: “binds” (HSP90B1 E103A (Homo sapiens, UniProt P14625); pull-down).
`B6 (sasA)`: binding “binds” (KaiC S431E/T432A (Synechococcus elongatus, UniProt Q79PF4); fluorescence polarisation; phosphomimetic KaiC-EA).
For `B7 (PEX15 1-327)`, binding read “binds” (PEX1/PEX6 complex E798Q/E832Q (Saccharomyces cerevisiae); co-IP).
`B8 (rasC GTP-bound Q62L)` — result for binding: “binds” (racE GDP-bound T25N, pS192 (Dictyostelium discoideum, UniProt Q23862); pull-down).
`B9 (slc12a2 1-202)` — result for binding: “binds” (SLC12A3 132-1021 E240A (Homo sapiens, UniProt P55017); cryo-EM; with: polythiazide 500 µM).
`B10 (MPP6)`: binding “binds” (SKI6/RRP45/RRP42/MTR3/RRP46/RRP43/CSL4/RRP4/RRP40 Exo9 core (Saccharomyces cerevisiae); SEC).
For `B11 (mel-26)`, binding read “binds” (mei-1, phosphorylated by MBK-2 (Caenorhabditis elegans, UniProt P34808); far-Western; 4 °C, denatured).

A few entries again:
Under binding, `B5 (GET1 21-104)` is recorded as “binds” (GET3 D57N, Alexa488 label (Saccharomyces cerevisiae, UniProt Q12154); FRET; with: nucleotides).
For `B2 (ARRB1 A12C/V387C)`, binding read “binds” (NTSR1, GRK5-phosphorylated (Homo sapiens, UniProt P30989); fluorescence titration).
